# Measured values from different studies.
# Every numbered part comes from another study and shows a few of its results, in no order. Substitutions count along the parent as printed.

# Sample 1
# Target: CCNE1, cyclin fold, Cln2 fusion (human)
# Technique: yeast growth competition, sequencing
# Sample: yeast
# Notes: weak parent motif
# Baseline: not given
# Reading: higher = stronger binding
# Parent: SLBP docking peptide (human); ARYKRKLLINDFG
Change,normalised enrichment score
G13Y,1.09
F12S,0.0937
F12D,0.627
L7V,0.235
R5W,-0.599
R5Q,-0.282
K6R,0.244
Y3M,0.978

# Sample 2
# Target: RING finger protein unkempt homolog, zinc fingers 1-6, GST-SBP tag (UNK, Homo sapiens, UniProt Q9C0B0, residues 30-357)
# Technique: RNA Bind-n-Seq
# Molecule type: RNA
# Sample: in vitro
# Concentration: not given
# Notes: RNA with constant flanks, human-mouse chimeric sites, ends assumed
# Baseline: input RNA pool
# Reading: higher = stronger binding
# Constant ends, left off below: GGGAGUUCUACAGUCCGACGAUC … CAACAGAGGAUUGAGCAUCA
# Residues (chain): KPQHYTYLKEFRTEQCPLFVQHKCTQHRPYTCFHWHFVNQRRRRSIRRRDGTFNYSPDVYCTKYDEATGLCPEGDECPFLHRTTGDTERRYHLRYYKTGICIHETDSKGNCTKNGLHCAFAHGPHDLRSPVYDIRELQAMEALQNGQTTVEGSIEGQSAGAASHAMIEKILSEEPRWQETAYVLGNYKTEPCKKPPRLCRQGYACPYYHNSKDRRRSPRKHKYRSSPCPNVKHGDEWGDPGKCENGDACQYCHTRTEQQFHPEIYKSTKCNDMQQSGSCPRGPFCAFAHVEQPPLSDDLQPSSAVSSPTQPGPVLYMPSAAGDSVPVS
Sequence,bound/input enrichment
ACCUCCCCCUCCCGCCUCACCCCACCCCCGCUUUUUGGAAAGUUUUUGGCGUUUCUUUUUUUUAGAAAUACAAAGUGGUUUUUACCACCCCCGCAAGGGUCUAUCGAAGGGCUUGACGGA,1.92 ratio
CCAAUCGUGGAGCAGUACUUGAAGACAAAGAAAAAUUCUAAUAAUUUAAUCAUCAAGUACAUUAGCUGCCGCCUGCUGACACUCAUCAUUAUACUGUUAGCGUGUAUCUACCUGGGCUAU,0.379 ratio
AAAGAACUACUGAGGCAAGGCAGCAAAUUUAGGAGAGACAUUUCAACACUAUUAAUAGAGUUAGGAUUCCAAAUUAAAAAGAAAACUAAGACAUUAUACAUCAACAAAGCCAAUGUGUGG,9.22 ratio
GCGGCAGAAUCAUGGAGGACAUAAUGCAGCUCCCCAAAGCGCGCGUCAACGCCGGCAUGUUACCACAAUUCAUCGACCGGCCCGUGUGCUUCGUGGGGAAGCUGGAAAAGAUUCAUCCCA,0.0754 ratio
CUAGCAGUCCAGCAGCUAGAAGGAGCCUUGAGACAAACACUCCACACGCAGGGAGGGCGAUAACAUUGUACAUUGGUUUACAUUUUUUCCCCCUGUGGAUUUUUCUAGAGGUCAUAGUGC,0.575 ratio
ACAGUUAUAUUGUUGAGUUUCAUUUUCAUAUAUUCUUGUAGUGUCUGCUUGCCUGUGUCUUUUAGUAAAAUAAAAUAUUAAAAUUACAAUAUUUUAGCAUGGUAUUUAACAUUUUCUAAA,3.47 ratio

# Sample 3
# Target: RNA binding protein fox-1 homolog 2, RRM domain, GST-SBP tag (RBFOX2, Homo sapiens, UniProt O43251-10, residues 100-194)
# Technique: RNA Bind-n-Seq
# Molecule type: RNA
# Sample: in vitro
# Concentration: 365 nM
# Notes: natural RNA segment, single round, ends assumed
# Baseline: no-protein control
# Reading: higher = stronger binding
# Constant ends, left off below: GGGAGUUCUACAGUCCGACGAUC … UGGAAUUCUCGGGUGCCAA
# Target sequence (chain): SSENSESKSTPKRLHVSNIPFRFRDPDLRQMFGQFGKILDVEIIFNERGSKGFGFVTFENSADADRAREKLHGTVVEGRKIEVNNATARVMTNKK
Sequence,RBNS enrichment (R)
GGAGCCUGGCUGUUUCACAGUAUUUCAUGAAUUUACCCACACAGGUGUGAUCCUCCUUGAGCAUUGAGGAGGCACAUGGAGAACUAAAUCUUUUGUAGUAGCUGAGAUCU,0.688
CCUGUGGGAUCGUUGCCUGGUUUGUCUUCUCUGUGUCCUGGAGCAAAGCCAGUUCCUAAAACUAAAACUCCAUUCUAGUCUUGGGAAGAAAAGUUUCUACUCAGAACUGG,0.218
UAUUUGUACAGAUGAGAGAGGAGCAGAAGAGGCGGCUGUGCUCGAGUUGAGAGACCAGGCAACCCACUGUUGAGAACCACUCUCAGUCAGCUGGUAGGGACAUUACACCA,0.367
CUCAAGGCAGUAUGAUAUACCCUAGUCUUUGGUGCCUCUAGUAUAUGUGACCAGGUGUCGUCCUGCAUGUAAAUCUCCGAGCUGAGUCUGACUCACAGCCCAUGCUGUCA,0.873
CCACUGUGGAGCUUCCCUGGGGUGCCCGGGCAAGUCUUGCCAGCAAGGCAGCAAGACUUCCUGCUAUCCAAGCCCAUGGAGGAAAGUUACUGCUGAGGACCCACCCAAUG,0.299
AUGUUUGUCUUGUUUUGUUCAUUUGGCCAGUAAGGAAUGUCCCUGGGCUUUGAGUUUCCAGAAAGAGAUGGAAUAAUGGAGACUUUCUUUCCCUGGGGACCAGUGUCAGU,11.1

# Single results of other studies
Molecule,target,assay,test system,conditions,how to read,endpoint,result
"PhoQ, residues 284 288 289 292 302 303 ASTSDA","PhoP, residues 12 14 15 18 19 LHSVW (Escherichia coli, UniProt P23836)","Sort-seq, item: YFP reporter",E. coli,"PhoQ-PhoP variant library, together with: 10 µM Mg2+","baseline: high Mg2+ state, higher = stronger signaling",fold induction,11.7
